Assay results from different studies.
A part holds a random share of what one study measured. Several values in a cell are separate wells, animals, samples, runs or records.

Sample 1
Target: RING finger protein unkempt homolog, zinc fingers 1-6, GST-SBP tag (UNK, Homo sapiens, UniProt Q9C0B0, residues 30-357)
Sequence of UniProt Q9C0B0 (30-357, looked up): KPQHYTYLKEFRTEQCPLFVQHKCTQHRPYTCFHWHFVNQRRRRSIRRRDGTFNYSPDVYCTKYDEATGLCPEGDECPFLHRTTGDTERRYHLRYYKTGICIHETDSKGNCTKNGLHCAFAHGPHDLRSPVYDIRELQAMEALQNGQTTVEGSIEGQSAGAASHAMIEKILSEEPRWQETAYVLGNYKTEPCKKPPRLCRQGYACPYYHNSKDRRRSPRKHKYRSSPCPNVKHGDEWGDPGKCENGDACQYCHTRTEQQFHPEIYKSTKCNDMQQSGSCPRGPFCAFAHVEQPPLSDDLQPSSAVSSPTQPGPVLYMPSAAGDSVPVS
Technique: RNA Bind-n-Seq
Molecule type: RNA
Sample: in vitro
Tested at: not given
Notes: RNA with constant flanks, human-mouse chimeric sites, ends assumed
Relative to: input RNA pool
Reading: higher = stronger binding
Quantity: bound/input enrichment
GGGAGUUCUACAGUCCGACGAUCAGUACUGCCCGUGCAAAAUUUUGCAACACCAAGCUCACAGCAGCAGCAUCUUAGUCACAGUAGGGUAGUUUUGGGGCUCUGUGGCCAGGGUUUUAUUCACAUGCAGGUUUGGAAAAUGUACAACAGAGGAUUGAGCAUCA: 1.85 ratio
GGGAGUUCUACAGUCCGACGAUCUUCUAGUAUGAUGGUGAUAUUGGCAAUUAUUAUUAUGGCCAGGGUCAUCCCAUGAAGCCUCAUAGAAUCCGCAUGACUCAUAACUUGCUGCUAAAUUAUGGUUUAUACCGAAAAAUGGAACAACAGAGGAUUGAGCAUCA: 0.191 ratio
GGGAGUUCUACAGUCCGACGAUCAGAGAAAUGAGAAAGAAUCUUACACAAGAAGAGAUGCAAAGAAUGUCUACUAGAGUCCUUUUGGCGACUCUUUCCAUUCCUAUUACUCCUGAGCGUACUGAUAUUGCUCGACUUUUGGAUCAACAGAGGAUUGAGCAUCA: 0.163 ratio

Sample 2
Target: Histone acetyltransferase KAT6A, winged helix 2, GST fusion (KAT6A, Homo sapiens, UniProt Q92794, residues 85-181)
Technique: protein binding microarray
Molecule type: double-stranded DNA, one strand shown
Sample: in vitro
Tested at: not given
Notes: 8-mer, flanks averaged, mean of 2 arrays, mostly near background
Relative to: not given
Reading: higher = stronger binding
Quantity: E-score
Construct (chain): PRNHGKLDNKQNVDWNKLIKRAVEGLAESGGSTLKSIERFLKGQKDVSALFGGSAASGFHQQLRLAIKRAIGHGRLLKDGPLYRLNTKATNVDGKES
GTCGAGTA: -0.00671
ATATTAAG: 0.13
AGCCGAGG: 0.219
CGTGATTC: -0.114
AAAAGCCA: 0.203
ACACGGTA: -0.0451

Sample 3
Target: Fragile X messenger ribonucleoprotein 1, C-terminal low-complexity region (Fmr1, Mus musculus, UniProt P35922)
Technique: RNA Bind-n-Seq
Molecule type: RNA
Sample: in vitro
Tested at: 200 nM
Notes: whole 134-nt RNA, ends assumed
Added: 150 mM LiCl
Relative to: input library
Reading: higher = stronger binding
Quantity: log2 enrichment
Each molecule: 7-deaza-guanosine replaces G
GGGAGUUCUACAGUCCGACGAUCUCCUGUGCUACACAUCGUAUGUACCGAAUCGGGAAAAAGGGUUUUUGGGAAAAAAAGGGAAAGUAUUAUGUUACGCCGUUCGGAUCUGCAUGGAAUUCUCGGGUGUCAAGG: -0.868
GGGAGUUCUACAGUCCGACGAUCCCUCAAGUCCUGUGCUACACAUCGUAUGUACCGAAUCGGGGCGGGCGGGCGGAAAGUAUUAUGUUACGCCGUUCGGAUCUGCACUUCCAGUGGAAUUCUCGGGUGUCAAGG: -0.898
GGGAGUUCUACAGUCCGACGAUCAGUCCUGUGCUACACAUCGUAUGUACCGAAUCGGGAGGGAAAAAAAGGGAAAAAGGGAAAGUAUUAUGUUACGCCGUUCGGAUCUGCACUUGGAAUUCUCGGGUGUCAAGG: -0.618
GGGAGUUCUACAGUCCGACGAUCUUGGACUAUGGAUCAGGUACUGUGCUCAGCAUCAGAAAAUGGGAUGACAAUGAACAGAGUAACAGGACUAUAUUUCUGAAAAAGGAUGAAUGGAAUUCUCGGGUGUCAAGG: -1.01

Mixed results
PhoQ, residues 284 288 289 292 302 303 SLANIV  fold induction (PhoP, residues 12 14 15 18 19 LWHCS (Escherichia coli, UniProt P23836); Sort-seq, refers to: YFP reporter; E. coli; PhoQ-PhoP variant library, added: 10 µM Mg2+; relative to: high Mg2+ state, higher = stronger signaling): 5.54 and 13.4
